# Measurements gathered from unrelated publications.
# Numbers after ± are the reported error.
Compound,assay,test system,conditions,scale,quantity,value
CCCC[C@H](NC(C)=O)C(=O)N[C@H]1CCC(=O)NC[C@@H](C(=O)N[C@@H](Cc2c[nH]c3ccccc23)C(N)=O)NC(=O)[C@H](CCCNC(=N)N)NC(=O)[C@@H](Cc2ccccc2)NC(=O)[C@H](Cc2c[nH]cn2)NC1=O,,"beagle dog, female, plasma","subcutaneous, 1.5 mg/kg daily, day 1",,Tmax,1.3 h
CN[C@@H]1[C@H](O)[C@H](NC)[C@H]2O[C@]3(O)[C@H](O[C@@H]2[C@H]1O)O[C@H](C)C[C@H]3NC(=O)Cc1ccc(F)cn1,glutathione conjugation,rat liver S9,"100 µM, 2 h, pH 7.4, together with: glutathione 0.2 mM",,parent remaining,96.6%
Cc1cc(C(=O)NC(C)(C)COc2cccc3c2C(N)=NS(=O)(=O)N3)cc(C)n1,,"female Sprague-Dawley rat, plasma","oral, 30 mg/kg, single dose",,half-life,0.774 h
O=C1N=C(N2CCOCC2)CN1c1ccc(Cl)cc1,,"beagle dog, both sexes, plasma","oral, 30 mg/kg, tablets, fasted, day 5",,AUC(0-inf),70.5 µg·h/mL
Cc1ccc(-c2cc(C(F)(F)F)nn2-c2ccc(S(N)(=O)=O)cc2)cc1,,"male ICR mouse, plasma","oral, 3 mg/kg, 24 h",,AUC,3.42 µg·h/mL
CC(C)NC[C@@H](C(=O)N1CCN(c2ncnc3c2[C@H](C)C[C@H]3O)CC1)c1ccc(Cl)cc1,,"human, hepatic impairment Severe (Child-Pugh), plasma","oral, 100 mg single, geometric mean",,AUC(0-inf),0.92 µg·h/mL
CO[C@H]1C[C@@H]2CC[C@@H](C)[C@@](O)(O2)C(=O)C(=O)N2CCCC[C@H]2C(=O)O[C@H]([C@H](C)C[C@@H]2CC[C@@H](O)[C@H](OC)C2)CC(=O)[C@H](C)/C=C(\C)[C@@H](O)[C@@H](OC)C(=O)[C@H](C)C[C@H](C)/C=C/C=C/C=C/1C,,"human, whole blood","oral, 35 mg, without grapefruit juice",,AUC(0-inf),1.8 µg·h/mL
O=C1CCc2ccccc2C(=O)c2ccccc2N1,nephelometry,aqueous buffer,"30 min, pH 6.5",,kinetic solubility,> 0.1 mg/mL
COc1cc2c3c(n(CCCN4CCOCC4)c(=O)c2cc1OC)-c1cc2c(cc1C3=O)OCO2,,"patients, plasma","intravenous infusion, 10 mg/m^2 daily over 1 h, cycle 1 day 3",,AUC(0-24 h),2.89 µg·h/mL
C[C@](N)(Cc1ccc(O)c(O)c1)C(=O)O,,supercritical carbon dioxide,"5 h, 343 K, 12 MPa, density 346.1 kg/m3",,solubility,0.0134 mg/mL
Br.Cc1ccc(Sc2ccccc2N2CCNCC2)c(C)c1,,"healthy humans, plasma","oral, median, population PK model",,elimination half-life,61.3 h
[2H]C([2H])([2H])Oc1cc2c(cc1OC([2H])([2H])[2H])C1CC(=O)C(CC(C)C)CN1CC2 (stereo not drawn),refers to: deuterated β-HTBZ,"healthy human volunteers, plasma","oral, 24 mg single dose, standard meal",,dose-normalized Cmax,0.0009 µg/mL
CCc1oc2ccc(OC)cc2c1C(=O)c1cc(Br)c(O)c(Br)c1,,"Sprague-Dawley rat, liver microsomes","1.0 µM, pH 7.4, 37 °C, together with: NADPH 1.0 mM",,intrinsic clearance,9.5 ± 2.8 µL/min/mg
OC[C@H]1O[C@@H](c2ccc(F)c(Cc3cc4ccccc4s3)c2)[C@H](O)[C@@H](O)[C@@H]1O,,"male ICR mouse, plasma","oral, 3 mg/kg, 24 h",,AUC,3.02 µg·h/mL
CNc1nc(Nc2ccc(-n3cnc(C)n3)c(OC)c2)nc2c1CC[C@H]2c1ccc(F)cc1,,"human, plasma","oral, 300 mg, single dose, fed",,AUC(0-t),19.4 µg·h/mL
Cc1c2c(n(-c3ccc(F)cc3Cl)c1-c1ccc(OS(=O)(=O)CCC(F)(F)F)cc1)CCN(N1CCCCC1)C2=O,LC-MS/MS,"cynomolgus monkey 3, plasma","intravenous infusion, 0.06 mg/kg, 90 min, total concentration mid-point of PET",,plasma concentration,0.031 µM
CCCC[C@@H]1NC(=O)[C@@H](NC(=O)[C@H](CCC(=O)O)NC(=O)CNC(=O)CN2CCN(CC(=O)O)CCN(CC(=O)O)CCN(CC(=O)O)CC2)CCCCNC(=O)C[C@@H](C(N)=O)NC(=O)[C@H](C(C)C)NC(=O)[C@@H]2CCCN2C(=O)[C@H](CCCNC(=N)N)NC(=O)CNC(=O)[C@H](Cc2c[nH]c3ccccc23)NC(=O)[C@H](CCCNC(=N)N)NC(=O)[C@@H](Cc2ccccc2)NC(=O)[C@H](Cc2c[nH]cn2)NC(=O)[C@H](CCC(=O)O)NC1=O [indium-111 labelled],,"normal C57 mice, spleen","intravenous, 0.037 MBq, 24 h",,tissue uptake,0.04 ± 0.03 %ID/g
CC1(C)C(/C=C/C=C/C=C/C=C2\N(CCCCS(=O)(=O)O)c3ccc4ccccc4c3C2(C)C)=[N+](CCCCS(=O)(=O)[O-])c2ccc3ccccc3c21,NIR fluorescence imaging,"C57BL/6 mouse, inguinal lymph node","intradermal, 20 µL, 500 µM",,time to maximal fluorescence,15 min
Cn1c(-c2ccc(C(N)=O)cc2F)nnc1C(C)(C)Oc1c(F)cc(Cl)cc1F,,"healthy young Japanese subjects, plasma","oral, 20 mg once daily, day 18, 14 days dosing",,half-life median,29.8 h
O=C(O)Cc1ccccc1Nc1c(Cl)cccc1Cl,,"rat, plasma","oral, 10 mg/kg, together with: sesamin 10 mg/kg",,AUC(0-24 h),9.05 ± 3.42 µg·h/mL
Cc1nc2cccc(OCC(C)(C)C(=O)NC(C)C)c2c(N)c1C(=O)O,,"male Sprague-Dawley rat, plasma","oral gavage, 30 mg/kg, day 1",,Tmax,0.33 h
C=CC(=C)CC[C@]1(C)[C@H](C)C[C@H](OC(=O)CCCCCCCCC)[C@@]23C(=C[C@H](OC(C)=O)C[C@@H]12)[C@@H](OC(C)=O)O[C@H]3OC(C)=O,haemolysis,,100 µM,,haemolysis,10%
CC(C)[C@H](N)C(=O)NCCCS(=O)(=O)O,,"human, plasma","oral, 340 mg capsule, day 14, fed, multiple dosing",,AUC(0-12),13.8 ± 2.22 µg·h/mL
CC1(C)C2CC[C@]1(C)C(=O)/C2=C/c1ccoc1,,human red blood cells,"10 to 300 µg/mL, 30 min",,maximum hemolysis,< 14%
CCNC(=O)c1cc2c(-c3cc(N4CCCCS4(=O)=O)ccc3Oc3ccc(F)cc3F)cn(C)c(=O)c2[nH]1,,"Sprague-Dawley rat, plasma","oral vs intravenous, 3 mg/kg oral, 1 mg/kg i.v.",,oral bioavailability,2.9%
CCCOc1ccc([C@H]2CNC(=O)N2c2ccc3[nH]cnc3c2)cc1,,"human volunteers fasted, plasma","oral solution, 200 mg single dose, day 1, geometric mean",,AUC(0-12h),1.31 µg·h/mL
O=C1Nc2ccc(S(F)(F)(F)(F)F)cc2C(=O)CCc2ccccc21,nephelometry,aqueous buffer,"30 min, pH 6.5",,kinetic solubility,≤ 0.0125 mg/mL
C[C@@H](c1ncncc1F)[C@](O)(Cn1cncn1)c1ccc(F)cc1F,,"patients, hematological disorders, no proton pump inhibitors, plasma","200 mg, 12 h, steady state, median",,trough concentration,1710 ng/mL
CN1CCN(c2ccc3nc(-c4c(N)c5c(F)cccc5[nH]c4=O)[nH]c3c2)CC1,,"patients, plasma","oral, 300 mg daily 5 days on 2 off, day 19, maximum, together with: gemcitabine and capecitabine",,t1/2,19.8 h
CS(=O)(=O)n1cc2c(n1)CN([C@H]1CO[C@H](c3cc(F)ccc3F)[C@@H](N)C1)C2,,"healthy male human, plasma","oral, 1.5 mg single, fasted, geometric mean",,concentration at 168 h,0.0033 µM
CC(C)[C@H](NC(=O)[C@@H]1CCCN1C(=O)[C@H](CCCNC(=N)N)NC(=O)[C@H](CS)NC(=O)[C@H](Cc1c[nH]c2ccccc12)NC(=O)[C@H](CCCNC(=N)N)NC(=O)[C@@H](Cc1ccccc1)NC(=O)[C@H](Cc1c[nH]cn1)NC(=O)[C@H](CCC(=O)O)NC(=O)[C@H](CS)NC(=O)[C@H](CS)NC(=O)[C@H](CCCCN)NC(=O)[C@@H]1CC(=O)N[C@@H](CCCNC(=N)N)C(=O)N[C@@H]([C@@H](C)O)C(=O)N[C@@H](CC(=O)O)C(=O)N[C@H](Cc2ccc(O)cc2)C(=O)N1)C(N)=O [technetium-99m labelled],,"female C57 mouse, B16/F1 melanoma, urine","intravenous, dose not given, 2 h, together with: NDP-MSH 10 µg co-injected",,urinary excretion,48.5 ± 21.6%
Nc1ccc(S(=O)(=O)Nc2ncccn2)cc1,,PBS,"2 h, pH 7.4, 25 °C",,kinetic solubility,397 µM
CC(C)[C@H](N)C(=O)OCC1(CO)C/C1=C/n1cnc2c(=O)[nH]c(N)nc21.Cl (mixture of isomers),refers to: prodrug,"Swiss-Webster mouse (male), plasma","intravenous, 24.6 mg/kg, two-compartment model",,C0 distribution phase,36.5 µg/mL
C[C@@H]1O[C@@H](OC[C@H]2O[C@@H](Oc3c(-c4ccc(O)c(O)c4)oc4cc(O)cc(O)c4c3=O)[C@H](O)[C@@H](O)[C@@H]2O)[C@H](O)[C@H](O)[C@H]1O,UPLC-MS/MS,"Wistar rat, microcirculation dysfunction model, plasma","oral, 100 mg/kg Salvia miltiorrhiza stem-leaf extract FT",,MRT(0-t),7.32 ± 0.77 h
CS/C(S)=N/CCCC[S+](C)[O-] (racemic),"RT-PCR, refers to: Cyp2b15","rat, colon","oral gavage, 200 mg/kg, dosed for four days",relative to: vehicle,mRNA fold change,1.15
COc1cccc2c1C(=O)c1c(O)c3c(c(O)c1C2=O)C[C@@](O)(C(=O)CO)C[C@@H]3O[C@H]1C[C@H](N)[C@H](O)[C@H](C)O1,,"female BALB/c mice, serum","intravenous, 18 mg total in three doses, 2 weeks after last dose",,LDH,250 ± 11.7 IU/L
